Experimental data from different studies.
Parts stem from different laboratories: compare values within a part only.
Sequence of UniProt P49841 (whole entry, looked up): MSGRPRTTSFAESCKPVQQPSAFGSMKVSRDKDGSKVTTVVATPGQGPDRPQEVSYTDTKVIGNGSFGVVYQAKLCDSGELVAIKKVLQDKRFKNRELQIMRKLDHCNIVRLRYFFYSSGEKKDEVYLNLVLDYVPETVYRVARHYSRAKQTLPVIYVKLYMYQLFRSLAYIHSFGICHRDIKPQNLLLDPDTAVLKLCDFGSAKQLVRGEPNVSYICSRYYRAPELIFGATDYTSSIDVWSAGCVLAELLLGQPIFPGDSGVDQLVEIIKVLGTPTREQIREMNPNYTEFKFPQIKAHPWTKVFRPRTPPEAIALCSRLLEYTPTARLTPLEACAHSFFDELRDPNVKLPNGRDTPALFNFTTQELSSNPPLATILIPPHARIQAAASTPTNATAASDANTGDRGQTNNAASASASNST
Sequence of UniProt Q12866 (whole entry, looked up): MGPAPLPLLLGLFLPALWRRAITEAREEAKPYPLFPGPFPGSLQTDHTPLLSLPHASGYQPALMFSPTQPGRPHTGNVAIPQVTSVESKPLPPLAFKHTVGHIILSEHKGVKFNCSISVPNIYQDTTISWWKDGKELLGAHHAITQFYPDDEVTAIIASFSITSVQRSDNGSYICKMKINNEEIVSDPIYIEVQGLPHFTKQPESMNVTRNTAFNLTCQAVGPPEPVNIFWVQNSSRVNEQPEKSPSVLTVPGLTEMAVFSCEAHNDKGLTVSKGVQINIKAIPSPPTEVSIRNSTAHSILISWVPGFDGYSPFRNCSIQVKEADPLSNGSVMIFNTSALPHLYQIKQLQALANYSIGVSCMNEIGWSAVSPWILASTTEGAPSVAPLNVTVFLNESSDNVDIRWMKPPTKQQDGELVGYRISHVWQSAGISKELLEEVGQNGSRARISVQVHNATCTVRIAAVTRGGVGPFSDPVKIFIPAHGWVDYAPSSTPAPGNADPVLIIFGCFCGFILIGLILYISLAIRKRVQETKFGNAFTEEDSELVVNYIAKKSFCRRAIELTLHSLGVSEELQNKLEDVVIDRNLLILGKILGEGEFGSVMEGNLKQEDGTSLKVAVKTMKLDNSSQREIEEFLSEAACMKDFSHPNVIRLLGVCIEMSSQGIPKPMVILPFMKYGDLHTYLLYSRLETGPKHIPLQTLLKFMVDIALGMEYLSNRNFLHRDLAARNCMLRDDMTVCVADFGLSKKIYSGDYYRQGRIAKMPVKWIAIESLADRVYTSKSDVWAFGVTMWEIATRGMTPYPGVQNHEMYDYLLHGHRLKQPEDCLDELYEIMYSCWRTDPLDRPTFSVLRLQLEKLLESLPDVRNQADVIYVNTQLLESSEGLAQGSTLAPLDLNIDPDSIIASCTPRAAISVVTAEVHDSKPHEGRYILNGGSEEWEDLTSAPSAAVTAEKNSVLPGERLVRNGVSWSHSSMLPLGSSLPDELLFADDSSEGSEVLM
Sequence of UniProt P29320 (whole entry, looked up): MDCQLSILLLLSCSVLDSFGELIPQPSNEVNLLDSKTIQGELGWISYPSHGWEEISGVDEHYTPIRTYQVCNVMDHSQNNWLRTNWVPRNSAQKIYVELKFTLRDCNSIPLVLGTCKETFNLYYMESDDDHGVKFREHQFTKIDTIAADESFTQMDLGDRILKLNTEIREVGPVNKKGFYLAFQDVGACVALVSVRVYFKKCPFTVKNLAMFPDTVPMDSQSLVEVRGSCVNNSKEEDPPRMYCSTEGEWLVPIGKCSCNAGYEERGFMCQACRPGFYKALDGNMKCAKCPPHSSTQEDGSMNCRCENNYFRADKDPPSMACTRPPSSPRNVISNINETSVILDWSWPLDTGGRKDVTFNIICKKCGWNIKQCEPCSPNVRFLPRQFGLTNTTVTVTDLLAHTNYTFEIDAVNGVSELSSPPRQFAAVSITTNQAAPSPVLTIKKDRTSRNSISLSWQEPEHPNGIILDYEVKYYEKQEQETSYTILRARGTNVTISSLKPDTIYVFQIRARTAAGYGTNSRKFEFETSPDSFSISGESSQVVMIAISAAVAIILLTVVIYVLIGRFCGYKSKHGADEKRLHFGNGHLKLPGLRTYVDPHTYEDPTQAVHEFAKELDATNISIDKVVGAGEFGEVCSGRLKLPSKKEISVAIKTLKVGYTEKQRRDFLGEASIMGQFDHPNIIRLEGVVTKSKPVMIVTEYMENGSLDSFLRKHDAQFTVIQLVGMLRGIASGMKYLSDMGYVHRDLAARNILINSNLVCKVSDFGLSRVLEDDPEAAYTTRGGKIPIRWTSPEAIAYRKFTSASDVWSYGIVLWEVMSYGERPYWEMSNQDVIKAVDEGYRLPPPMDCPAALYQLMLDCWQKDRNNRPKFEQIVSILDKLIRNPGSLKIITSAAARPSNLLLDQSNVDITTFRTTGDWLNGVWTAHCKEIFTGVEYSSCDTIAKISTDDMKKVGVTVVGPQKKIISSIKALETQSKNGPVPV
Sequence of UniProt Q99558 (whole entry, looked up): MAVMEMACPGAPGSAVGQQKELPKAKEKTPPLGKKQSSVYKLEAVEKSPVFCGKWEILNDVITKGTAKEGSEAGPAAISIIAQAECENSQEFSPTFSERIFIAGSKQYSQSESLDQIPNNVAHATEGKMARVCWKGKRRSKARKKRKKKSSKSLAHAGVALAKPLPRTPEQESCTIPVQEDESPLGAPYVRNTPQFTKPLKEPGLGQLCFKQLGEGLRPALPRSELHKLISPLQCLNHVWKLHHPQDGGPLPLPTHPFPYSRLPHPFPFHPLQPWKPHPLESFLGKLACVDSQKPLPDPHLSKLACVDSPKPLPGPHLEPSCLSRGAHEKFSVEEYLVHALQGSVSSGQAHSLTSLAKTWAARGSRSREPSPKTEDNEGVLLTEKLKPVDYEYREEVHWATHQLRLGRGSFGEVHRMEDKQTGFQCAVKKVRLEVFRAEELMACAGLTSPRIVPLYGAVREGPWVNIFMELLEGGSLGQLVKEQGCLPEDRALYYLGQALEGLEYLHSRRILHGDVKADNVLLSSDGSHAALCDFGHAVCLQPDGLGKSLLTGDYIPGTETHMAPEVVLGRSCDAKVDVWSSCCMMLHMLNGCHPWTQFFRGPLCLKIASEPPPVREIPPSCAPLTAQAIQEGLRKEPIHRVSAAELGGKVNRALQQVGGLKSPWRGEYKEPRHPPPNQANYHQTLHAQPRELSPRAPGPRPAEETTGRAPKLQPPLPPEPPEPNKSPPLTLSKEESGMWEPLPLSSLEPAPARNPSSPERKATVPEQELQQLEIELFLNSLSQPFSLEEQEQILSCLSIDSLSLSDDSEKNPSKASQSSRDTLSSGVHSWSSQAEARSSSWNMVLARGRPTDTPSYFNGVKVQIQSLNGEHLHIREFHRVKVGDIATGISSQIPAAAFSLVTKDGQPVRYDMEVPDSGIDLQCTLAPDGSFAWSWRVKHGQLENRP
Sequence of UniProt Q9HC98 (whole entry, looked up): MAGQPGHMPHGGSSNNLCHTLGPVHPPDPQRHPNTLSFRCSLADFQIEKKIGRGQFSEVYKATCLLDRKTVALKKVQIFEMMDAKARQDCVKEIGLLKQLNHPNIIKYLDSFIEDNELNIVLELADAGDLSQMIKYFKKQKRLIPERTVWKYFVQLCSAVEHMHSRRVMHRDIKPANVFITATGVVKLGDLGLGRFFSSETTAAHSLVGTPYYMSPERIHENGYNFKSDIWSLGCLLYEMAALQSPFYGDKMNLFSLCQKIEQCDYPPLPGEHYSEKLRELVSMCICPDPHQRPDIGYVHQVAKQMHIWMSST
Sequence of UniProt Q9UL54 (whole entry, looked up): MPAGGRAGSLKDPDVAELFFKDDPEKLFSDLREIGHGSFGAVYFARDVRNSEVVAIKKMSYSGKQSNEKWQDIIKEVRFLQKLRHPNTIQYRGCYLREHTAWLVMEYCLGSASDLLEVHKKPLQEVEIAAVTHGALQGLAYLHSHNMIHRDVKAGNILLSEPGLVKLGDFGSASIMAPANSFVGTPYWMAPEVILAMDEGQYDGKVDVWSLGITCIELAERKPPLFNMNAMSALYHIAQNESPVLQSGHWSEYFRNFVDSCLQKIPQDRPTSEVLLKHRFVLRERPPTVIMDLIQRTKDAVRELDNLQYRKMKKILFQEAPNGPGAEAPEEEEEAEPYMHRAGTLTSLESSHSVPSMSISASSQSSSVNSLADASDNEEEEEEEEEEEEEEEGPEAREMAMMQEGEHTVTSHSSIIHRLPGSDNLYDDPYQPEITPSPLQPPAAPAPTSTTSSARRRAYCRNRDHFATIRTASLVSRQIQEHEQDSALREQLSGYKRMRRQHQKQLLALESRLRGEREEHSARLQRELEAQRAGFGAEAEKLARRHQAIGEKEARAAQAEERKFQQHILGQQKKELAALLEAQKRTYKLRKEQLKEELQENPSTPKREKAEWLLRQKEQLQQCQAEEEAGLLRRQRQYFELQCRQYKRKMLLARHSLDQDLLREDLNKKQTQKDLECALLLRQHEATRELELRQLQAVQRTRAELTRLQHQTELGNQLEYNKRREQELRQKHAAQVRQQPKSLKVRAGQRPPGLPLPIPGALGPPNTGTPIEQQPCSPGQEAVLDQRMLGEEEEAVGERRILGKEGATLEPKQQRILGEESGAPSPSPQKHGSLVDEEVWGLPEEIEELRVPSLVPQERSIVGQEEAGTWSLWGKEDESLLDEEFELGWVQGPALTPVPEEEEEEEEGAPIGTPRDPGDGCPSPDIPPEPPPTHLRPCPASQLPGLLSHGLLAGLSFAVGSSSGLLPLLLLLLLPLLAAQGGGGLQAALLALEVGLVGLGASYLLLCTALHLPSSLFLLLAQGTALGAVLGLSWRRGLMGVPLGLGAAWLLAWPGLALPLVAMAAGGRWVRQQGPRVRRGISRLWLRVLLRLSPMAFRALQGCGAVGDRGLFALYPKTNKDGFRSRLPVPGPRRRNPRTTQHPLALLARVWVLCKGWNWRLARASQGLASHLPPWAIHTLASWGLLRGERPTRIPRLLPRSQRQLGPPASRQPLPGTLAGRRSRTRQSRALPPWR

Series 1
Cell line: A-375
Concentration: 100 µM
Time: 18 h
SMILES | viability
C#C[C@]1(O)CC[C@H]2[C@@H]3CCc4cc(O)ccc4[C@H]3CC[C@@]21C | 16.7%
Cc1nnc(SCC2=C(C(=O)O)N3C(=O)[C@@H](NC(=O)Cn4cnnn4)[C@H]3SC2)s1 | 102%
COC(=O)c1ccc2c(c1)NC(=O)/C2=C(\Nc1ccc(N(C)C(=O)CN2CCN(C)CC2)cc1)c1ccccc1 | 101%
Cn1c(NCCN(CCO)CCCc2ccc([N+](=O)[O-])cc2)cc(=O)n(C)c1=O | 92.1%
CCOC(=O)CC(=O)N1CCSC1COc1ccccc1OC (stereo not drawn) | 103%
CCC1(c2ccccc2)C(=O)NCNC1=O | 105%
CC(=O)OC(C)C(C)C(=O)OC[C@@]12[C@H]3C[C@]4(C)C(=CC[C@@H]5[C@@]6(C)CC[C@H](O[C@@H]7O[C@H](C(=O)O)[C@@H](O[C@@H]8O[C@H](CO)[C@@H](O)[C@H](O)[C@H]8O)[C@H](O)[C@H]7O[C@@H]7OC[C@@H](O)[C@H](O)[C@H]7O)[C@@](C)(CO)[C@@H]6CC[C@]54C)[C@@H]1CC(C)(C)[C@H](O3)[C@@H]2O (stereo partly drawn) | 7.9%
CCCN(CCC)CCc1cccc2c1CC(=O)N2 | 91.3%
COc1cc(NS(=O)(=O)c2ccc(N)cc2)nc(OC)n1 | 93.6%
Nc1ccn([C@H]2CC[C@@H](CO)O2)c(=O)n1 | 97.2%
C[N+](C)(C)CC(O)CC(=O)[O-] (racemic) | 95.5%
CCC[C@H](N[C@@H](C)C(=O)N1[C@H](C(=O)O)C[C@@H]2CCCC[C@@H]21)C(=O)O | 110%
NNc1nnc(NN)c2ccccc12 | 64.3%
CCC(=O)O[C@]1(C(=O)SCF)[C@H](C)C[C@H]2[C@@H]3C[C@H](F)C4=CC(=O)C=C[C@]4(C)[C@@]3(F)[C@@H](O)C[C@@]21C | 88%
C=C(c1ccc(C(=O)O)cc1)c1cc2c(cc1C)C(C)(C)CCC2(C)C | 10.7%

Series 2
Compound: C[C@@H]1CCN(C(=O)CC#N)C[C@@H]1N(C)c1ncnc2[nH]ccc12
Observed: enzyme activity
Mode: inhibitor
Concentration: 0.5 µM
Baseline: control
target | remaining activity [%]
GSK3B (Homo sapiens, UniProt P49841) | 99.6
MST1R (Homo sapiens, UniProt Q04912) | 102
FRK (Homo sapiens, UniProt P42685) | 106
WEE1 (Homo sapiens, UniProt P30291) | 97.7
NEK6 (Homo sapiens, UniProt Q9HC98) | 83.2
MAP2K2 (Homo sapiens, UniProt P36507) | 117
GRK7 (Homo sapiens, UniProt Q8WTQ7) | 102
MAPKAPK2 (Homo sapiens, UniProt P49137) | 96.6
FGFR3 (Homo sapiens, UniProt P22607) | 95.3
ABL2 (Homo sapiens, UniProt P42684) | 90.5
MAPK3 (Homo sapiens, UniProt P27361) | 98.6
ULK3 (Homo sapiens, UniProt Q6PHR2) | 101
TAOK2 (Homo sapiens, UniProt Q9UL54) | 100
TEK (Homo sapiens, UniProt Q02763) | 96.6
ULK2 (Homo sapiens, UniProt Q8IYT8) | 92
ARAF (Homo sapiens, UniProt P10398) | 102
MAP3K5 (Homo sapiens, UniProt Q99683) | 97.8
MERTK (Homo sapiens, UniProt Q12866) | 114
LCK (Homo sapiens, UniProt P06239) | 80.2
NEK1 (Homo sapiens, UniProt Q96PY6) | 84.6
MAP3K14 (Homo sapiens, UniProt Q99558) | 107
EPHA3 (Homo sapiens, UniProt P29320) | 94.1
RPS6KA2 (Homo sapiens, UniProt Q15349) | 89.7
TBK1 (Homo sapiens, UniProt Q9UHD2) | 92.5
ACVR1B (Homo sapiens, UniProt P36896) | 99.8

Series 3
Organism: Sarcocystis neurona
Observed: parasite growth
Concentration: 10 µM
Time: 96 h
Setting: secondary screen
SMILES | inhibition [%]
Nc1nc(O)c2ncn(COC(CO)CO)c2n1 | -20.4
COc1ccc(C2CNC(=O)C2)cc1OC1CCCC1 (stereo not drawn) | -24.3
CC[C@H](C)C(=O)O[C@H]1CCC=C2C=C[C@H](C)[C@H](CC[C@@H]3C[C@@H](O)CC(=O)O3)[C@H]21 | -19.4
CN1CCN(C2=Nc3cc(F)ccc3Cc3ccccc32)CC1 | -22.2
CC(=O)OCC(=O)NCCCOc1cccc(CN2CCCCC2)c1 | -37.4
CN1CC(=O)N2[C@H](c3ccc4c(c3)OCO4)c3[nH]c4ccccc4c3C[C@@H]2C1=O | -50.2
Cc1ccc(C)c(OCCCC(C)(C)C(=O)O)c1 | -15.6
CNCC[C@@H](Oc1ccccc1C)c1ccccc1 | -35.1

Series 4
Structure (SMILES): O=C(N[C@H]1CCCCC/C=C\C2C[C@@]2(C(=O)O)NC(=O)[C@@H]2C[C@@H](Oc3ccncc3)CN2C1=O)OC1CCCC1 (stereo partly drawn)
Technique: competition with immobilised ligand
Concentration: 1 µM
target | assay | remaining binding
ACVR2B (Homo sapiens, UniProt Q13705) | binding | 100%
MAPK7 (Homo sapiens, UniProt Q13164) | binding | 90%
EGFR (Homo sapiens, UniProt P00533, L858R/T790M) | cell-free assay | 98%
SNRK (Homo sapiens, UniProt Q9NRH2) | binding | 97%
TNK2 (Homo sapiens, UniProt Q07912) | binding | 100%
FLT3 (Homo sapiens, UniProt P36888, D835V) | binding | 92%
KIT (Homo sapiens, UniProt P10721, D816H) | binding | 100%
RIOK1 (Homo sapiens, UniProt Q9BRS2) | binding | 63%
GSK3B (Homo sapiens, UniProt P49841) | binding | 89%
Macrophage colony-stimulating factor 1 receptor, autoinhibited (CSF1R, Homo sapiens, UniProt P07333) | cell-free assay | 92%
SGK2 (Homo sapiens, UniProt Q9HBY8) | binding | 100%
CSNK1E (Homo sapiens, UniProt P49674) | binding | 67%
BMX (Homo sapiens, UniProt P51813) | binding | 66%
PKN2 (Homo sapiens, UniProt Q16513) | binding | 75%
EPHB2 (Homo sapiens, UniProt P29323) | cell-free assay | 91%

Some of these lines once more (series 3):
SMILES | inhibition [%]
Nc1nc(O)c2ncn(COC(CO)CO)c2n1 | -20.4
COc1ccc(C2CNC(=O)C2)cc1OC1CCCC1 (stereo not drawn) | -24.3
CC[C@H](C)C(=O)O[C@H]1CCC=C2C=C[C@H](C)[C@H](CC[C@@H]3C[C@@H](O)CC(=O)O3)[C@H]21 | -19.4
CN1CCN(C2=Nc3cc(F)ccc3Cc3ccccc32)CC1 | -22.2
CC(=O)OCC(=O)NCCCOc1cccc(CN2CCCCC2)c1 | -37.4
CN1CC(=O)N2[C@H](c3ccc4c(c3)OCO4)c3[nH]c4ccccc4c3C[C@@H]2C1=O | -50.2
Cc1ccc(C)c(OCCCC(C)(C)C(=O)O)c1 | -15.6
CNCC[C@@H](Oc1ccccc1C)c1ccccc1 | -35.1
